# Experimental data gathered from unrelated publications.
# Numbered parts are unrelated; each lists some results of a single study. Positions count from the first letter of the parent shown.

# Sample 1
# Target: CCNE1, cyclin fold, Cln2 fusion (human)
# Technique: yeast growth competition, sequencing
# Matrix: yeast
# Notes: strong parent motif
# Baseline: not given
# Reading: higher = stronger binding
# Parent: RBL2 docking peptide (human); STTRRRLFVENDS; partner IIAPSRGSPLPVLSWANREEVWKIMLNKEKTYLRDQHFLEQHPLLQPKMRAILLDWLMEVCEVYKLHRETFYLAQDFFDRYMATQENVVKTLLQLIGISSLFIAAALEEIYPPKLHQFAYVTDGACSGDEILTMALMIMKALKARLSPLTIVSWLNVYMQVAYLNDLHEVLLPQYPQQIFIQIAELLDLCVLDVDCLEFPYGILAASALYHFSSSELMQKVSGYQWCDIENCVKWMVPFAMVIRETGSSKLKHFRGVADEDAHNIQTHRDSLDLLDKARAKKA
Change,normalised enrichment score
S1Y,5.44
V9G,3.85
N11D,6.64
S1A,5.37
D12I,5.04
T3L,2.54
V9N,5.61
S13H,5.61
S13W,5.54
L7M,0.0405
T3D,0.521
R5Q,0.924
R5C,0.207
D12E,5.28
D12G,4.89

# Sample 2
# Target: Protein C-ets-1 (ETS1, Homo sapiens, UniProt P14921, residues 1-441, Y397A, full length assumed)
# UniProt P14921, sequence (whole entry, unmodified, looked up): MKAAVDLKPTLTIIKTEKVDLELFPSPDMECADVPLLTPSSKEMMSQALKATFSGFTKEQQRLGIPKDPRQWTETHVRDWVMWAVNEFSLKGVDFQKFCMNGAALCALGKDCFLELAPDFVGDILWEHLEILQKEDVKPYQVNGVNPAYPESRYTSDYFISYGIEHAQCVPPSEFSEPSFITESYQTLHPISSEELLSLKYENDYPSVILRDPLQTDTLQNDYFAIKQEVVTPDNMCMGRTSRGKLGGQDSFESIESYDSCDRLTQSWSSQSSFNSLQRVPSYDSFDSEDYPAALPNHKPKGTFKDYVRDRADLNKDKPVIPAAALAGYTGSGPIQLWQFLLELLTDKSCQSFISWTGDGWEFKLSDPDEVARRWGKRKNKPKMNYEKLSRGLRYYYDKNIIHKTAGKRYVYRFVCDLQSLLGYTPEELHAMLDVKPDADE
# Technique: protein-binding microarray
# Form: double-stranded DNA, one strand shown
# Matrix: in vitro
# Tested at: not given
# Notes: k-mer, scored over probes, only values ≥0.25
# Reading: higher = stronger binding
Sequence,E-score
CCAACAAC,0.257
GACAATGC,0.256
GTGTGACA,0.297
ATGTTGCG,0.297
CGTCGACG,0.319
CCGTCAAA,0.311
GACGGAAA,0.253
CCGCCCCG,0.427
GATATACC,0.272
CGATATCC,0.276
ACAAGGAA,0.257
CTTCCGCC,0.423
ATTTCCGG,0.487
AATTGTCA,0.407
AACATGTA,0.259

# Sample 3
# Target: Prothrombin, mature alpha-thrombin (F2, Homo sapiens, UniProt P00734)
# Technique: aptamer microarray, sandwich
# Form: DNA with 2'F-ANA
# Matrix: in vitro
# Tested at: 200 nM
# Notes: whole 15-mer aptamer, many near background
# Added: Cy3 exosite-II aptamer, 400 nM
# Reading: higher = stronger binding
# Sequence: GGTTGGTGTGGTTGG
Modification,mean fluorescence intensity
2'F-ANA at 1 4 5 9 10 12 13 15,60.8 a.u.
2'F-ANA at 2 3 7 8 9 11 12 13,828 a.u.
2'F-ANA at 2 4 5 10,51.7 a.u.
2'F-ANA at 1 4 5 6 8 12 13,78.3 a.u.
2'F-ANA at 2 3 8 11 15,665 a.u.
2'F-ANA at 2 3 4 6 8 9 10 11 12 14 15,134 a.u.
2'F-ANA at 1 5 6 8 10 12 13,137 a.u.
2'F-ANA at 1 2 5 8 9 12 13,86.7 a.u.
2'F-ANA at 2 5 7 10 13,109 a.u.
2'F-ANA at 3 6 8 9 10 14 15,431 a.u.
2'F-ANA at 2 4 6 7 9 11 14 15,74.3 a.u.
2'F-ANA at 1 2 8 10 11 13 15,63.3 a.u.
2'F-ANA at 1 3 4 5 9 10 12 14,46 a.u.
2'F-ANA at 1 2 3 4 7 8 9 10 11 13 14,54.2 a.u.
2'F-ANA at 1 2 3 4 7 8 9 13,127 a.u.
2'F-ANA at 1 5 6 7 8 9 10 12 14 15,48.5 a.u.
2'F-ANA at 3 4 7 8 9 13,563 a.u.

# Sample 4
# Target: Sal-like protein 4, full length isoform B (SALL4, Homo sapiens, UniProt Q9UJQ4-2, residues 1-616)
# Technique: universal PBM
# Form: double-stranded DNA, one strand shown
# Matrix: in vitro
# Tested at: not given
# Notes: 8-mer, flanks averaged, mean of replicates
# Reading: higher = stronger binding
Sequence,E-score
TAGATCCA,0.137
GTCGGGAA,0.027
GCTATGCA,-0.0153
GAGTAATC,0.165
CAAAAACC,0.122
GCGCGCAC,-0.169
ATTGTTAC,0.292
GGGAGGAC,-0.224
AGGTGGGA,-0.124
AAAGCAAT,0.187
GAACCGCA,-0.192
ACATTAAG,0.264
AACCGAAG,0.0647
CACAACAC,0.0979
CTCGAAGA,-0.0638
CCAGCTAG,-0.187
CTCTGTTA,-0.023
CCCAAGAC,-0.17
CGAGGCGC,-0.217

# Sample 5
# Target: Histone acetyltransferase KAT6A, winged helix 2, GST fusion (KAT6A, Homo sapiens, UniProt Q92794, residues 85-181)
# Technique: protein binding microarray
# Form: double-stranded DNA, one strand shown
# Matrix: in vitro
# Tested at: not given
# Notes: 8-mer, flanks averaged, mean of 2 arrays, mostly near background
# Baseline: not given
# Reading: higher = stronger binding
# Target sequence (chain): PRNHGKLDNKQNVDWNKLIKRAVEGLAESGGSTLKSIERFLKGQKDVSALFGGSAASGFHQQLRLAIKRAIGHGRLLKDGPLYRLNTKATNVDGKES
Sequence,E-score
GTGTTGAA,-0.0622
GCATGTAC,-0.257
CATATCAG,-0.112
GCTAAACA,0.133
CGAGGGAC,-0.0232
CTCGTATA,-0.205
CTAGGACC,-0.135
GGAAACGA,0.0651
AAAGGGCA,0.0893
CCTCCGCG,0.114
CAATAACC,0.0546
GTTGATAA,0.152
CTAGCCTC,-0.178
AAACACCA,-0.111
GGCATGGA,0.0934
AGACACTA,0.098

# Sample 6
# Target: Ras GTPase-activating protein-binding protein 1, C-terminal RGG region (G3BP1, Homo sapiens, UniProt Q13283)
# UniProt Q13283, sequence (whole entry, looked up): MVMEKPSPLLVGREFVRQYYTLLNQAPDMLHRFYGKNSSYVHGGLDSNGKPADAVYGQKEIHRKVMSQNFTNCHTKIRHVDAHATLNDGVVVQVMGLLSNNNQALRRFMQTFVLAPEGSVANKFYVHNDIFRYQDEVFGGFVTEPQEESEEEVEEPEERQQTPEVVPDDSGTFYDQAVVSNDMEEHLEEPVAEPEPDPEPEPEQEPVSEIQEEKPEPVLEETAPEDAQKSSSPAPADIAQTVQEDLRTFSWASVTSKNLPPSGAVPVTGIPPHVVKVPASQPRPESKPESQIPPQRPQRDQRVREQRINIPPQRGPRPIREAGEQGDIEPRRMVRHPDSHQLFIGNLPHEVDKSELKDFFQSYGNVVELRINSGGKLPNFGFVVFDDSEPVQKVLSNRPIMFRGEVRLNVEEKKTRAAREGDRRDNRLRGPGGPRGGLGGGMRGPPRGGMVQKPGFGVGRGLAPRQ
# Technique: RNA Bind-n-Seq
# Form: RNA
# Matrix: in vitro
# Tested at: 1 µM
# Notes: whole 134-nt RNA, ends assumed
# Added: 150 mM KCl
# Baseline: input library
# Reading: higher = stronger binding
# All sequences stand within: GGGAGUUCUACAGUCCGACGAUC … UGGAAUUCUCGGGUGUCAAGG
Sequence,log2 enrichment
AAGUCCUGUGCUACACAUCGUAUGUACCGAAUCGGGGCCCGGGCCCGGGGCCCGGGAAAGUAUUAUGUUACGCCGUUCGGAUCUGCACUU,-2.6
AAGUCCUGUGCUACACAUCGUAUGUACCGAAUCGGAGGUUUUUUUGGAAAAAAAGGAAAGUAUUAUGUUACGCCGUUCGGAUCUGCACUU,-2.17
UAACUUUAGAGGAGGAUCUGAUGGAUAUGGCAGUGGACGUGGAUUUGGGGAUGGCUAUAAUGGGUAUGGUGGAGGACCUGGAGGUGGCAA,-0.637
ACCAUGCAGGUGGACAUCUUUGGGAAGUGGGGCAAGGGGGGGAUAGGGAGGGGGGUAACACUUUGGGAACAGGUGGUCCCAGGUCGUUUC,-1.24
UGUGCUACACAUCGUAUGUACCGAAUCGGGGUUUUUUUGGGGUUUUUUUGGGGUUUUUUUGGGAAAGUAUUAUGUUACGCCGUUCGGAUC,-0.667
UCCUCAAGUCCUGUGCUACACAUCGUAUGUACCGAAUCGGAGGAGGGGAGGGAAAGUAUUAUGUUACGCCGUUCGGAUCUGCACUUCCAG,-0.542
CUGUGCUACACAUCGUAUGUACCGAAUCGUGUGUGUGUGUGUGUGUGUGUGUGUGUGUGUGUAAAGUAUUAUGUUACGCCGUUCGGAUCU,1.56
UGGCCCUGGUGGCAUGCGGGGAGGAAGAGGUGGCCUCAUGGAUCGUGGUGGGCCCGGUGGAAUGUUCAGAGGUGGCCGUGGUGGAGACAG,0.178
GUCCUGUGCUACACAUCGUAUGUACCGAAUCGGGGAGGGGAAAAAGGGGAAAAAGGGGAAAGUAUUAUGUUACGCCGUUCGGAUCUGCAC,1.38
UGGAUGGACACCAUUAUCGUCGUGUGGCACGGGUUGACCUAAGGAAGAAGACAGAGACUUUCUCCACAAGAAGGGUUAAGUCUGGGCUGU,0.191

# Some of these lines once more (sample 5):
Sequence,E-score
AAAGGGCA,0.0893
AGACACTA,0.098
CTAGCCTC,-0.178
CGAGGGAC,-0.0232
GTGTTGAA,-0.0622
GCATGTAC,-0.257
CTCGTATA,-0.205
GGAAACGA,0.0651
CCTCCGCG,0.114
GCTAAACA,0.133
